Measured values from different studies.
Protocols differ between the studies behind these lines. Values joined by “and” are separate records of one study, mostly repeats; a detail may differ. ± gives the spread as reported.
HDAC1: Histone deacetylase 1 (HDAC1, Homo sapiens, UniProt Q13547)
Chain of UniProt Q13547 (whole entry, looked up): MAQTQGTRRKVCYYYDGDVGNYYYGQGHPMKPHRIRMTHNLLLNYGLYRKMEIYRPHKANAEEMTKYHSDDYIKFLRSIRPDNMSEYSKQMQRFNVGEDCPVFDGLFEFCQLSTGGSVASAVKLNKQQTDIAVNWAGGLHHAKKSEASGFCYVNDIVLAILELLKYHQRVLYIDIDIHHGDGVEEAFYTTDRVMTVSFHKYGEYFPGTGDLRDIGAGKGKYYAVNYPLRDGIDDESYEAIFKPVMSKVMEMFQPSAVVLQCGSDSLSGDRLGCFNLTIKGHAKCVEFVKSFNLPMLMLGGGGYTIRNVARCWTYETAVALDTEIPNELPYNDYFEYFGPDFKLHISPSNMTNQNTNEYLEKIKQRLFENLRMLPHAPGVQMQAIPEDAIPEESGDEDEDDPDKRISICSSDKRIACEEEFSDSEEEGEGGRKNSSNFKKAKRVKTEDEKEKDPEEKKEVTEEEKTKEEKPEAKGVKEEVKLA
Ephx2: Bifunctional epoxide hydrolase 2 (Ephx2, Mus musculus, UniProt P34914)
Chain of UniProt P34914 (whole entry, looked up): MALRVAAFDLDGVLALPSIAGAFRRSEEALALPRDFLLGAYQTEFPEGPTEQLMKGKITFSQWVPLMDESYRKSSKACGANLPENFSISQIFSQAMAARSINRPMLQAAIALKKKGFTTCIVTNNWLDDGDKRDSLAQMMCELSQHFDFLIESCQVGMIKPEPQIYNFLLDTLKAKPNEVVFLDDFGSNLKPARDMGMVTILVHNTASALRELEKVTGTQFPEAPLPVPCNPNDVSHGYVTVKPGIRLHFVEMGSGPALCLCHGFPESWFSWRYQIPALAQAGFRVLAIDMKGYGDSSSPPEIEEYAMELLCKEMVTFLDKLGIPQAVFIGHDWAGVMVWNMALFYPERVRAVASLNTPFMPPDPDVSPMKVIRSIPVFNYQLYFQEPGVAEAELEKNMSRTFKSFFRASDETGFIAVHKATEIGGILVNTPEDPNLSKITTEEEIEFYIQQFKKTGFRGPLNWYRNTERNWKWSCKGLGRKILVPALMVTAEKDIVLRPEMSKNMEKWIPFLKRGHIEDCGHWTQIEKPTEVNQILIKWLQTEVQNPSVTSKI
BACE1: Beta-secretase 1 (BACE1, Homo sapiens, UniProt P56817)
Chain of UniProt P56817 (whole entry, looked up): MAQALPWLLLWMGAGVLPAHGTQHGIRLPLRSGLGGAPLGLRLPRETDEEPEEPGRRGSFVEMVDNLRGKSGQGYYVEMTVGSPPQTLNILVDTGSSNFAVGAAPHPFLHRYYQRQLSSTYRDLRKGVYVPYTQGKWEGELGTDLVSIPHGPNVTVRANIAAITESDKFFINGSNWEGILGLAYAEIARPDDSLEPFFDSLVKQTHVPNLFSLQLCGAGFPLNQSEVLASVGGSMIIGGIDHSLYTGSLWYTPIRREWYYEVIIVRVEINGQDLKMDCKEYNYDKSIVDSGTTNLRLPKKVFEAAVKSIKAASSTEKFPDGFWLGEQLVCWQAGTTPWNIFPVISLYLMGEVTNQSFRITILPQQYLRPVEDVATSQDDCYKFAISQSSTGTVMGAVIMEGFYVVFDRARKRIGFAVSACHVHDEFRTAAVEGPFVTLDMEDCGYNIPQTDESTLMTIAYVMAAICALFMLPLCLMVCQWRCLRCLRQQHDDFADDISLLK
Kir3.1/Kir3.2: Kir3.1/Kir3.2 (Homo sapiens, UniProt P48051+P48549)
Chain of UniProt P48549 (whole entry, looked up): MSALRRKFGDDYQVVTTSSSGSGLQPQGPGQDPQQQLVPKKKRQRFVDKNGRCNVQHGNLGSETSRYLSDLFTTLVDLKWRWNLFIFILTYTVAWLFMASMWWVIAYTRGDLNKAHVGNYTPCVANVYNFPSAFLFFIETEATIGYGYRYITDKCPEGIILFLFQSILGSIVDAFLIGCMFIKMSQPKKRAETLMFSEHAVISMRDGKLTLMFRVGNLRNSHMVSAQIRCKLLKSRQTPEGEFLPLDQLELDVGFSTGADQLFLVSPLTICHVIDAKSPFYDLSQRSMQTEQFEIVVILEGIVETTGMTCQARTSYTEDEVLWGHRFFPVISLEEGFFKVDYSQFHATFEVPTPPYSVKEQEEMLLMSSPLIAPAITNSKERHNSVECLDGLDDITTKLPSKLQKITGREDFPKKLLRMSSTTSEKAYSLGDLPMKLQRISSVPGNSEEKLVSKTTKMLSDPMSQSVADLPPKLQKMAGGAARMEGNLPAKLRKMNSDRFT
Chain of UniProt P48051 (whole entry, looked up): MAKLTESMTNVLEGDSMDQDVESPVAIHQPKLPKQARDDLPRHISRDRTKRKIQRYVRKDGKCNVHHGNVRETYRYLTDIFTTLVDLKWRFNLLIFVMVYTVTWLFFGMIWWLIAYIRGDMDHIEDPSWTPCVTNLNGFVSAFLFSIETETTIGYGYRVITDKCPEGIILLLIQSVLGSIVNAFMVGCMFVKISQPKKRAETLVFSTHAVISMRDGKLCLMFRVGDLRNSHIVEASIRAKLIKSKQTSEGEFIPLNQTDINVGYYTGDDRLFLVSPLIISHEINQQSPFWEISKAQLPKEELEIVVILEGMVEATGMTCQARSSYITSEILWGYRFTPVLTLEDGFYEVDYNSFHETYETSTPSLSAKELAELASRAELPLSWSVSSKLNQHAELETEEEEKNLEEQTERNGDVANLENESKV
ALPI: Intestinal-type alkaline phosphatase (ALPI, Bos taurus, UniProt P19111)
Chain of UniProt Q16820 (whole entry, looked up): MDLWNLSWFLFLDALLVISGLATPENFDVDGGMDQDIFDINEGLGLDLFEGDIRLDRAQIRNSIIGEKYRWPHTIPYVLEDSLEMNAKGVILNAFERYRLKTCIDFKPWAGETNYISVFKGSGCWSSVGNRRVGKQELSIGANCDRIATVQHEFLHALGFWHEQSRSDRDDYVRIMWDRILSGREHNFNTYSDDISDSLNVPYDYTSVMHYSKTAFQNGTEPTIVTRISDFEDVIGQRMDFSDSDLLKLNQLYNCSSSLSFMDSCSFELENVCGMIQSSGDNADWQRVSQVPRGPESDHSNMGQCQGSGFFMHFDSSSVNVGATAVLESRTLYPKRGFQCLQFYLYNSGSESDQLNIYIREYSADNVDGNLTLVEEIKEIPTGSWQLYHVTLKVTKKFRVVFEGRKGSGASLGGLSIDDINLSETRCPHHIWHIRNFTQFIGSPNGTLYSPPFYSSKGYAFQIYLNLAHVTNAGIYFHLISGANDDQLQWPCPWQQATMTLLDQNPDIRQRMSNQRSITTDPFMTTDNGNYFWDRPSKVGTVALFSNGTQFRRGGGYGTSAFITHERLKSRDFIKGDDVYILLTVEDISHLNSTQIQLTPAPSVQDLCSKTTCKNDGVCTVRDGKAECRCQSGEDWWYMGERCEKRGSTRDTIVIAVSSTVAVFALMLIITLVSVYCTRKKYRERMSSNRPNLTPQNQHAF
Chain of UniProt P37231 (whole entry, looked up): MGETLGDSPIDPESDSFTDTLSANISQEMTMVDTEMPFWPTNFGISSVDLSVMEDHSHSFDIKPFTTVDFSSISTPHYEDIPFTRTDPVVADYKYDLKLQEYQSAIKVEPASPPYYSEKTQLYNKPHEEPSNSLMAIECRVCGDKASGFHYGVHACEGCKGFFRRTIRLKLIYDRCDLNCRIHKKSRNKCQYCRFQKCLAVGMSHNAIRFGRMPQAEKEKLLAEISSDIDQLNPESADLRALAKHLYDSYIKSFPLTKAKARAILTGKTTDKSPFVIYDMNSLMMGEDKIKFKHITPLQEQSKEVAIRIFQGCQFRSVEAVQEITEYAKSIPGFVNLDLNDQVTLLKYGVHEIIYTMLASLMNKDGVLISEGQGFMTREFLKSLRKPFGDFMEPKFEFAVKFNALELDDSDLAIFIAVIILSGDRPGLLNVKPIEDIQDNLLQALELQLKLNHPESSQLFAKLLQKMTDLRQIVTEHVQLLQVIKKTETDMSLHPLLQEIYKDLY
Chain of UniProt Q8TDS5 (whole entry, looked up): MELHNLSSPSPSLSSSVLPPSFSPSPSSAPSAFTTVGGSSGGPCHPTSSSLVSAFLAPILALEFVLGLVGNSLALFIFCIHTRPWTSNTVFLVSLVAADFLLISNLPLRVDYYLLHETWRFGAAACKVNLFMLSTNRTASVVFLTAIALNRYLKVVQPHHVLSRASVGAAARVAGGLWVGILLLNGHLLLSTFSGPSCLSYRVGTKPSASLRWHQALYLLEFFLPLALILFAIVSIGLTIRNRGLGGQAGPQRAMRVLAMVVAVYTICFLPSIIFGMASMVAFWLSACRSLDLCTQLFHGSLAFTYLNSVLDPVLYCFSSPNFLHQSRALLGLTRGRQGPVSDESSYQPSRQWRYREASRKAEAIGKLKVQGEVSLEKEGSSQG
Chain of UniProt P19111 (whole entry, looked up): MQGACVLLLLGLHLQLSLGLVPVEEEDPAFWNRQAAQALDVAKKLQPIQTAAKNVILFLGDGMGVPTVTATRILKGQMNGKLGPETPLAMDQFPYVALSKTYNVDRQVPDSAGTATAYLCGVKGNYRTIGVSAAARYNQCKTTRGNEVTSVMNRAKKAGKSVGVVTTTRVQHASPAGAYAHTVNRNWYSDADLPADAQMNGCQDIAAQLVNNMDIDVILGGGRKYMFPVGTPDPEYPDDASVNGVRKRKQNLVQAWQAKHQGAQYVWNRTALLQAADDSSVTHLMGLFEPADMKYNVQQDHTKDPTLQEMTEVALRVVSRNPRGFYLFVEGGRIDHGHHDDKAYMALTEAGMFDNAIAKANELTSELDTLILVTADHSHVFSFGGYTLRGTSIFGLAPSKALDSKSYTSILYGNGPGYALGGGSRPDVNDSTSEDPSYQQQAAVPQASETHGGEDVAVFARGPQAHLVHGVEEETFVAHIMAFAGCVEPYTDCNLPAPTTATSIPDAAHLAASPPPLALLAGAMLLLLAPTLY
Chain of UniProt Q9H1C0 (whole entry, looked up): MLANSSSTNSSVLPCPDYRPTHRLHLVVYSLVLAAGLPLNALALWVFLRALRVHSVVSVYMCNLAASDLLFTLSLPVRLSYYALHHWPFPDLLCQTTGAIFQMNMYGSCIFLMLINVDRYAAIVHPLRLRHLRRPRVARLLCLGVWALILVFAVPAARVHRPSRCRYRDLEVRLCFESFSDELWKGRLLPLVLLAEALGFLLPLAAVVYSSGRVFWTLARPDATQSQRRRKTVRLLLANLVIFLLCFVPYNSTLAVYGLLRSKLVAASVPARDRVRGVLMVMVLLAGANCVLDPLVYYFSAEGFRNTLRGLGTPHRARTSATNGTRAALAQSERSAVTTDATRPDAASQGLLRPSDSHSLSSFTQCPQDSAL

Structure (SMILES) | target | test | system | setting | IC50
Oc1cccn(Cc2cn(-c3ccccc3)nn2)c1=S | HDAC1 | enzyme activity, inhibitor, SAMDI mass spectrometry | – | – | > 10 µM
CCOC(=O)C1=C(C)N=c2s/c(=C\c3ccc(-c4cccc(C(=O)O)c4)o3)c(=O)n2C1c1c(OC)ccc2ccccc12 (stereo not shown) | Serine/threonine-protein kinase pim-1 (PIM1, Homo sapiens, UniProt P11309) | kinase activity, inhibitor, ADP-Glo | – | – | 0.87 ± 0.5 µM
C[C@@H](O)[C@H](F)[C@@H](O)[C@H](O)C(=O)CO | 3-dehydroquinate synthase, chloroplastic (DHQS, Arabidopsis thaliana, UniProt Q8VYV7) | enzyme activity, inhibitor, malachite green phosphate release | – | 29 °C | 250 µM
C[C@]12CC3CC(Nc4c(Nc5ccc(C(=O)N6CCC[C@H](C(=O)NCCCCCC(=O)NO)C6)cc5)c(=O)c4=O)(C1)C[C@@](C)(C3)C2 | Ephx2 | enzyme activity, inhibitor, fluorescence | – | – | 16.1 µM
C[C@H](CCC(=O)O)[C@H]1CC[C@H]2[C@@H]3CC[C@@H]4C[C@H](OC(=O)CCCCCC(=O)O)CC[C@]4(C)[C@H]3CC[C@]12C | human 20S proteasome | chymotrypsin-like activity, inhibitor | – | together with: PA28 | > 10 µM
O=C(CCCCCCNC(=O)[C@H]1CCCN(C(=O)c2ccc(NC(=O)NC(c3ccccc3)c3ccccc3)c(F)c2)C1)NO | Ephx2 | enzyme activity, inhibitor, fluorescence | – | – | 3.06 µM
O=C1/C(=C/c2ccccc2)C(NC2CCCCC2)c2ccccc21 (stereo not shown) | BACE1 | inhibitor, FRET | – | pH 4.5 | 521 ± 168 µM
Cc1ccc(-c2ncn(-c3ccc(Nc4nccc(-c5cccc(N6CCOCC6)c5)n4)cc3)n2)cn1 | Mitogen-activated protein kinase 9 (MAPK9, Homo sapiens, UniProt P45984) | enzyme activity, inhibitor, TR-FRET | – | – | ~0.2 µM
C=C(C)CCOP(=O)(O)OP(=O)(O)OP(=O)(O)OC[C@H]1O[C@@H](n2cnc3c(N)ncnc32)[C@H](O)[C@@H]1O | Proto-oncogene tyrosine-protein kinase ROS (ROS1, Homo sapiens, UniProt P08922) | enzyme activity, inhibitor, HotSpot kinase | – | together with: ATP 1 µM | 4 µM
CC(=O)N[C@H]1[C@@H](O[C@H]2[C@H](O)[C@@H](O)[C@H](O[C@H]3[C@H](O)[C@@H](NC(C)=O)[C@@H](OCCCCCN)O[C@@H]3COS(=O)(=O)O)O[C@H]2C(=O)O)O[C@H](COS(=O)(=O)O)[C@@H](O[C@@H]2O[C@@H](C(=O)O)[C@@H](O)[C@H](O)[C@H]2O)[C@@H]1O | BACE1 | enzyme activity, inhibitor, FRET | – | pH 4.5 | 32 µM
O[C@@H]1[C@@H](O)[C@@H]2O[C@@H]2[C@H](Cn2cc(CCCOCc3ccc(-c4ccccc4)cc3)nn2)[C@H]1O | gba1 (Danio rerio, UniProt E7EZM1) | – | – | – | 0.004 to 0.006 µM
Nc1nc2c(ncn2[C@@H]2O[C@@H]3COP(=O)(O)O[C@H]3[C@H]2O)c(=O)[nH]1 | Cyclic nucleotide-gated potassium channel (Spirochaeta thermophila, UniProt G0GA88) | Tl+ flux, inhibitor, stopped-flow fluorescence | liposomes | 2.5 s, together with: cAMP 200 µM | 40 µM
O=c1cc(CO)occ1O | Egl nine homolog 1 (EGLN1, Homo sapiens, UniProt Q9GZT9) | ODDD peptide hydroxylation, inhibitor, MALDI-TOF MS | – | pH 7.00, 37.0 °C, together with: 2-oxoglutarate 10 µM | 400 µM
COc1cccc(Cn2c(=N)n(CC(O)COc3ccc(C)cc3)c3ccccc32)c1 (stereo not shown) | Kir3.1/Kir3.2 | ion flux | – | – | 4.2 µM
CCCC[C@H](NC(=O)CNC(=O)[C@H](CCCCN)NC(=O)[C@@H](NC(=O)[C@H](CCC(=O)O)NC(=O)CNC(=O)[C@H](CCCNC(=N)N)NC(=O)[C@@H]1CCCN1C(=O)[C@H](CCCCN)NC(=O)[C@@H](N)CCCCN)[C@@H](C)O)C(=O)N[C@H](C(=O)N[C@@H](Cc1ccc(O)cc1)C(N)=O)[C@@H](C)CC | human 20S proteasome (latent) | peptidylglutamyl-peptide hydrolase activity, inhibitor | – | pH 8.0, 37 °C, together with: Z-LLE-βNA | 1.42 µM
Cc1cccc(Nc2cc(Cl)nc(SCC(=O)O)n2)c1C | Aldo-keto reductase family 1 member B10 (AKR1B10, Homo sapiens, UniProt O60218) | enzyme activity, inhibitor | – | – | 60 µM
COc1cc(/C=C/C(C)=N/O)ccc1OCC(=O)Nc1ccc(Cl)cc1 | Peroxisome proliferator-activated receptor gamma (PPARG, Homo sapiens, UniProt P37231) | ligand displacement, TR-FRET | – | – | 8.6 µM and 8.61 µM
O=S(=O)(c1cc(C(=S)Nc2cc(F)c(F)c(F)c2)c(Cl)cc1Cl)N1CCOCC1 | Lysophosphatidic acid receptor 5 (LPAR5, Homo sapiens, UniProt Q9H1C0) | Ca2+ mobilization, antagonist | B103 | together with: LPA at EC50 | > 100 µM
O=C1NC2=C(C(=O)N(Cc3ccc(F)cc3)C2)C(c2ccc(O)cc2)N1 (stereo not shown) | ALPI | enzyme activity, inhibitor, absorbance | – | pH 9.5 | 4.77 µM
NS(=O)(=O)c1ccc(NCc2cnc3ccccc3c2)cc1 | BACE1 | inhibitor, FRET | – | pH 4.5 | 346 ± 22 µM

Structure (SMILES) | target | test | system | setting | IC50
Cc1ccccc1OCC(O)Cn1c(=N)n(Cc2ccccc2)c2ccccc21 (stereo not shown) | Kir3.1/Kir3.2 | ion flux | – | – | 1.95 µM
COc1cc2c(cc1OC)-c1cc3ccc4c(c3c[n+]1CC2)OCO4 | Cytochrome P450 2E1 (Cyp2e1, Rattus norvegicus, UniProt P05182) | inhibitor | – | – | > 100 µM
CN(C)c1ccc(-c2ccc(Cn3cccc(O)c3=S)cc2)cc1 | HDAC1 | enzyme activity, inhibitor, SAMDI mass spectrometry | – | – | > 10 µM
Fc1ccccc1 | Neuronal acetylcholine receptor; alpha4/beta2 (Homo sapiens, UniProt P17787+P43681) | ion current, inhibitor, two-electrode voltage clamp | Xenopus oocytes | together with: ACh 1 mM | 0.007 atm
O=C(O)CC(O)(CC(=O)O)C(=O)O | mushroom tyrosinase | enzyme activity, inhibitor | – | 2 min, together with: L-DOPA | 9380 ± 60 µg/mL
O=c1cc(N2CCOCC2)oc2c(OCc3cccnc3)cccc12 | Phosphatidylinositol 4,5-bisphosphate 3-kinase catalytic subunit alpha isoform (PIK3CA, Homo sapiens, UniProt P42336, Q859D) | enzyme activity, inhibitor | – | – | 5.2 µM
C[C@@H](CNCc1ccccc1)N1C[C@H](CCCNC(=N)N)N(CCc2cccc(F)c2)C1=S | GABAA receptor central benzodiazepine site | binding, radioligand displacement | – | together with: flunitrazepam radioligand | > 1 µM
Cc1ccc(S(=O)(=O)N[C@H](CC(=O)N[C@@H](C)C(=O)NCc2cccc3ccccc23)CC(=O)NC(C)(C)C)cc1 | Proteasome component C5/PSMB8 (Homo sapiens, UniProt P20618+P28062) | chymotrypsin-like activity, inhibitor | – | together with: ac-ANW-AMC | 0.014 ± 0.002 µM
COc1ccc2c(CC(=O)NCCCC[C@H](N)C(=O)N[C@@H](CCC(=O)O)C(=O)N[C@@H](Cc3ccc(CS(=O)(=O)O)cc3)C(=O)N[C@@H](CCC(=O)O)C(=O)N[C@@H](Cc3ccc(CS(=O)(=O)O)cc3)C(=O)N[C@@H](CC(C)C)C(=O)N[C@@H](CC(=O)O)C(=O)N[C@@H](Cc3ccc(CS(=O)(=O)O)cc3)C(=O)N[C@@H](CC(=O)O)C(=O)N[C@@H](Cc3ccccc3)C(=O)N[C@@H](CC(C)C)C(=O)N3CCC[C@H]3C(=O)N[C@@H](CCC(=O)O)C(=O)N[C@H](C(=O)N[C@@H](CCC(=O)O)C(=O)N3CCC[C@H]3C(=O)N[C@@H](CC(C)C)C(=O)O)[C@@H](C)O[C@H]3O[C@H](CO[C@@H]4O[C@H](CO)[C@@H](O[C@@H]5O[C@H](CO)[C@H](O)[C@H](O[C@]6(C(=O)O)C[C@H](O)[C@@H](NC(C)=O)[C@H]([C@H](O)[C@H](O)CO)O6)[C@H]5O)[C@H](O[C@@H]5O[C@@H](C)[C@@H](O)[C@@H](O)[C@@H]5O)[C@H]4NC(C)=O)[C@H](O)[C@H](O[C@@H]4O[C@H](CO)[C@H](O)[C@H](O)[C@H]4O)[C@H]3NC(C)=O)cc(=O)oc2c1 | P-selectin (Mus musculus, UniProt Q01102) | chimera binding to neutrophils, inhibitor, flow cytometry | mouse neutrophils | together with: P-selectin Fc chimera 2 µg/mL | ~19 µM
O=C(Nc1cc(C(=O)Nc2ccc(S(=O)(=O)O)cc2S(=O)(=O)O)cc(C(=O)Nc2ccc(S(=O)(=O)O)cc2S(=O)(=O)O)c1)Nc1cc(C(=O)Nc2ccc(S(=O)(=O)O)cc2S(=O)(=O)O)cc(C(=O)Nc2ccc(S(=O)(=O)O)cc2S(=O)(=O)O)c1 | MBNL1 (CAG)20 RNA interaction | binding, inhibitor, filter binding | – | together with: MBNL1 200 nM | 98.7 ± 9.6 µM
CCc1ccc(C2=C/C(=C/c3ccco3)C(=O)O2)cc1 | Sonic hedgehog protein, N-terminal signaling domain (Homo sapiens, UniProt Q15465) | heparin binding, inhibitor, fluorescent heparin competition, refers to: ShhN | solid-phase | – | 53 µM
CCCCCCCCCCCCCCCC(=O)OCc1cc(=O)c(OC(=O)CCCCCCCCCCCCCCC)co1 | mushroom tyrosinase | inhibitor | – | together with: L-DOPA | > 2000 µM
CN(C)CC(c1ccc(O)cc1)C1(O)CCCCC1 (stereo not shown) | Sodium-dependent serotonin transporter (Slc6a4, Mus musculus, UniProt Q60857, I172M) | [3H]5-HT uptake | brain synaptosomes | 10 min, pH 7.4, 37 °C, together with: [3H]5-HT 100 nM | 7.9 µM
O=C(O)c1ccc(-n2c(/C=C/c3cccc([N+](=O)[O-])c3)nc3ccccc3c2=O)cc1 | Glutamate receptor ionotropic, kainate 2 (Grik2, Rattus norvegicus, UniProt P42260) | ion current, inhibitor, two-electrode voltage clamp | Xenopus oocytes | concanavalin A pretreatment, together with: 100 µM glutamate | > 300 µM
CSCC[C@H](NC(=O)[C@H](CC(C)C)NC(=O)[C@@H](Cc1ccccc1)NC(=O)CNC(=O)[C@@H](NC(=O)[C@H](C)NC(=O)[C@H](Cc1c[nH]c2ccccc12)NC(=O)[C@H](CCC(N)=O)NC(=O)[C@H](CC(N)=O)NC(=O)CNC(=O)[C@H](Cc1ccc(O)cc1)NC(=O)[C@H](CCCNC(=N)N)NC(=O)[C@H](CCC(N)=O)NC(=O)[C@@H]1CCC(=O)N1)C(C)C)C(N)=O | Neuromedin-B receptor (NMBR, Homo sapiens, UniProt P28336) | inositol phosphate generation, antagonist | Balb 3T3 expressing NMBR | together with: neuromedin B 1 nM | > 10 µM
O=c1cc(-c2ccc(O)c(O)c2)oc2cc(O)cc(O)c12 | UDP-glucuronosyltransferase 1A1 (UGT1A1, Homo sapiens, UniProt P22309) | glucuronidation | pooled human liver microsomes | no preincubation | 44 µM
O=C1NC2=C(C(=O)N(c3ccc(F)cc3)C2)C(c2ccc(O)cc2)N1 (stereo not shown) | ALPI | enzyme activity, inhibitor, absorbance | – | pH 9.5 | 2.5 µM
CCCCC[C@H](CC(=O)NO)C(=O)N[C@H](C(=O)N1CCC[C@H]1CO)C(C)C | Meprin A subunit beta (MEP1B, Homo sapiens, UniProt Q16820) | enzyme activity, inhibitor, FRET | – | – | 7.7 µM and 6.2 µM
O=C(Oc1cc(O)cc2c1C[C@@H](OC(=O)c1cc(O)c(O)c(O)c1)[C@@H](c1cc(O)c(O)c(O)c1)O2)c1cc(O)c(O)c(O)c1 | mRNA triphosphatase Cet1 (Trypanosoma brucei brucei, UniProt Q582T2) | enzyme activity, Transcreener ADP fluorescence polarization | – | 3 h, together with: 50 µM ATP | 0.24 µM
CCCCCCc1cc2cc(Cl)ccc2n1C(=O)CCCC(=O)O | Oxoeicosanoid receptor 1 (OXER1, Homo sapiens, UniProt Q8TDS5) | calcium signal, antagonist | – | – | 1.2 µM and 1.17 µM

Some of these lines once more:
Structure (SMILES) | target | test | system | setting | IC50
CC(=O)N[C@H]1[C@@H](O[C@H]2[C@H](O)[C@@H](O)[C@H](O[C@H]3[C@H](O)[C@@H](NC(C)=O)[C@@H](OCCCCCN)O[C@@H]3COS(=O)(=O)O)O[C@H]2C(=O)O)O[C@H](COS(=O)(=O)O)[C@@H](O[C@@H]2O[C@@H](C(=O)O)[C@@H](O)[C@H](O)[C@H]2O)[C@@H]1O | BACE1 | enzyme activity, inhibitor, FRET | – | pH 4.5 | 32 µM
O[C@@H]1[C@@H](O)[C@@H]2O[C@@H]2[C@H](Cn2cc(CCCOCc3ccc(-c4ccccc4)cc3)nn2)[C@H]1O | gba1 (Danio rerio, UniProt E7EZM1) | – | – | – | 0.004 to 0.006 µM
Nc1nc2c(ncn2[C@@H]2O[C@@H]3COP(=O)(O)O[C@H]3[C@H]2O)c(=O)[nH]1 | Cyclic nucleotide-gated potassium channel (Spirochaeta thermophila, UniProt G0GA88) | Tl+ flux, inhibitor, stopped-flow fluorescence | liposomes | 2.5 s, together with: cAMP 200 µM | 40 µM
